Results of several laboratories.
Parts stem from different laboratories: compare values within a part only.

Set 1 — method: universal PBM; form: double-stranded DNA, one strand shown; sample: in vitro; tested at: 600 nM; reading: higher = stronger binding
Target: Sal-like protein 4, full length isoform A (SALL4, Homo sapiens, UniProt Q9UJQ4, residues 1-1053)
UniProt Q9UJQ4, sequence (whole entry, looked up): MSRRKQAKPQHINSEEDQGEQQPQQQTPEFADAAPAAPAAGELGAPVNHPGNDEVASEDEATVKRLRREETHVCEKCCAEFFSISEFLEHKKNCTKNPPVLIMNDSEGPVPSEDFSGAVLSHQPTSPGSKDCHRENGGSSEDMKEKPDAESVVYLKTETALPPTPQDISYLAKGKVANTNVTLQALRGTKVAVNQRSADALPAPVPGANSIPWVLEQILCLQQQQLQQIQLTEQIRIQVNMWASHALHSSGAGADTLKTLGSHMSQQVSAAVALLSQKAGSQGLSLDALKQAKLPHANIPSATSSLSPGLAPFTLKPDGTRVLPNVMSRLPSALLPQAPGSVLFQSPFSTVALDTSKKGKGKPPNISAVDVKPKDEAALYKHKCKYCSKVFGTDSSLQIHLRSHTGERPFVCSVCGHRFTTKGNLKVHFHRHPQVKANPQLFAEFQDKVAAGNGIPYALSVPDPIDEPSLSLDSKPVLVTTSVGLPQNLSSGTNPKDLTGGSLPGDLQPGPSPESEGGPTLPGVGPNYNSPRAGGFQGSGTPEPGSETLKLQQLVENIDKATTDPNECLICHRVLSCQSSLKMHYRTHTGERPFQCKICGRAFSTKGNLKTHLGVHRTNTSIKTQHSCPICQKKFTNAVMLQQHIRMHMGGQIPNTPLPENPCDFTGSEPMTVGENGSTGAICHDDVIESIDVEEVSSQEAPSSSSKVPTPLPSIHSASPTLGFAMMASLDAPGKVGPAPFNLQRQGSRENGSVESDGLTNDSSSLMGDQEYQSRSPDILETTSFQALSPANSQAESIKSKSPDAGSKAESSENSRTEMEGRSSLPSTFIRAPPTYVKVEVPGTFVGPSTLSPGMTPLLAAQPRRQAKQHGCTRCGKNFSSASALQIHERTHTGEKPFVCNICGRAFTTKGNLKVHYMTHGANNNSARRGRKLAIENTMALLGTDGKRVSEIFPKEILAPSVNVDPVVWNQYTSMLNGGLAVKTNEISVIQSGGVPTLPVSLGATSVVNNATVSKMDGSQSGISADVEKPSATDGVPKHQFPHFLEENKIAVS
Notes: 8-mer, flanks averaged, mean of replicates
The E-score of `CTCTGGAC` is reported as -0.128.
With `GCACCTAC` the E-score was -0.253.
The E-score of `AACGACAA` is reported as 0.0862.
`ACTGAGAC` has an E-score of -0.047.
With `GTATGGAA` the E-score was 0.101.
`GAAGTCTA` gave an E-score of 0.109.
`CTGATCAG` has an E-score of -0.19.
The E-score of `CCCGGTTC` is reported as -0.358.

Set 2 — method: protein binding microarray; form: double-stranded DNA, one strand shown; sample: in vitro; tested at: not given; baseline: not given; reading: higher = stronger binding
Target: Histone acetyltransferase KAT6A, winged helix 1, GST fusion (KAT6A, Homo sapiens, UniProt Q92794, residues 1-85)
Notes: 8-mer, flanks averaged, mean of 2 arrays, mostly near background
Residues (chain): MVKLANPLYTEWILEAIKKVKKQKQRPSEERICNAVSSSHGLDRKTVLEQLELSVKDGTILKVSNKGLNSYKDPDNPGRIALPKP
With `ATTGTATC` the E-score was -0.0817.
`ACCCTCAT` gave an E-score of -0.294.
`GCCCTACA` has an E-score of -0.0209.
`ACATCTCA` has an E-score of -0.0707.
`ACTTCGTC` gave an E-score of -0.00627.
For `GAGCCAAA`, the E-score was -0.136.
`CTAACCGC` gave an E-score of 0.228.

Set 3 — method: RNAcompete; form: RNA; sample: in vitro; tested at: 20 nM; notes: 7-mer, probes averaged, single round; baseline: mean of 7-mers; reading: higher = stronger binding
Target: PABPC1L2, full length, GST fusion (mouse, UniProt A0ABA7IW68)
Residues (chain): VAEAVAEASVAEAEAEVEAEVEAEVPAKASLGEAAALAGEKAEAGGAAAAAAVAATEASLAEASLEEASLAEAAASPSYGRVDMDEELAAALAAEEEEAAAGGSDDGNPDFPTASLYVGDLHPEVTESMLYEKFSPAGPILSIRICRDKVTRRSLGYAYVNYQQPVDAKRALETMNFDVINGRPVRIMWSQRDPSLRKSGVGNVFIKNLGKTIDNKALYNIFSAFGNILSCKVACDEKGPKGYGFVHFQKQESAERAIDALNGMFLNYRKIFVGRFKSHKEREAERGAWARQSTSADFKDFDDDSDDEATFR
`CGCUAUG` gave a 7-mer Z-score of -0.349.
With `UGCAGCA` the 7-mer Z-score was -0.191.
With `UCUCUUC` the 7-mer Z-score was -0.456.
`UCACAGG` has a 7-mer Z-score of -0.0826.
`AUUGACC` has a 7-mer Z-score of 0.0334.
`GGUAAGA` has a 7-mer Z-score of 0.0442.
`UCCCGCG` gave a 7-mer Z-score of -0.353.

Single results of other studies
For `PhoQ, residues 284 288 289 292 302 303 NLMGRA`, the fold induction was 1.07 (PhoP, residues 12 14 15 18 19 STWGI (Escherichia coli, UniProt P23836); Sort-seq, item: YFP reporter; E. coli; PhoQ-PhoP variant library, with: 10 µM Mg2+; baseline: high Mg2+ state, higher = stronger signaling).
